# Measured values from different studies.
# Each numbered part is a random draw from the data of one study; scales do not carry over between parts. Substitutions count along the parent as printed.

# Block 1
# Target: Sal-like protein 4, full length isoform B (SALL4, Homo sapiens, UniProt Q9UJQ4-2, residues 1-616)
# Method: universal PBM
# Form: double-stranded DNA, one strand shown
# Medium: in vitro
# Tested at: not given
# Setting: 8-mer, flanks averaged, mean of replicates
# Reading: higher = stronger binding
# Residues (chain): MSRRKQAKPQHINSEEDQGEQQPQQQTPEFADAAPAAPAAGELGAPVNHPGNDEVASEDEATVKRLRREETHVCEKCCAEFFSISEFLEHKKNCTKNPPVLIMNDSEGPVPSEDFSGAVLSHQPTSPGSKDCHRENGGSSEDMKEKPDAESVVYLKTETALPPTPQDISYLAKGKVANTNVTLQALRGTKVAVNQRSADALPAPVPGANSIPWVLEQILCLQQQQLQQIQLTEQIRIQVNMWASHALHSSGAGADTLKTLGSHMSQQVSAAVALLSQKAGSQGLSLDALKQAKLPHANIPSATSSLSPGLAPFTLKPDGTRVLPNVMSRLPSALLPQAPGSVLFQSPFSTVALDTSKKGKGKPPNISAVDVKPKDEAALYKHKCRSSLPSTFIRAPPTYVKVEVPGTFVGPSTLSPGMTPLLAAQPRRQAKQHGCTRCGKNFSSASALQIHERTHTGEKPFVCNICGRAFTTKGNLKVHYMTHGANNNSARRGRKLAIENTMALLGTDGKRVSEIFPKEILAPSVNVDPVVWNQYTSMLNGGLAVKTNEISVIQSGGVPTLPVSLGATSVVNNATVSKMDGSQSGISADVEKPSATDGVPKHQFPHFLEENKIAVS
Sequence,E-score
GTAAGGCA,0.0815
CCCGGTCA,-0.269
AACAGAAT,0.111
TACATCCA,0.217
ATTCCGAA,0.168
CGACAAAG,0.142
CCACCATA,0.0767
ACTGGTAC,-0.124
AGATAAAA,0.247
AATCTACA,0.175
ACAGAATA,0.223
TCAGGAGA,0.112
CGAGGAGA,-0.234

# Block 2
# Target: ABI1, truncated, D143A, DHFR fusion (Arabidopsis thaliana)
# Method: DHFR PCA, deep sequencing
# Medium: yeast
# Setting: methotrexate growth selection, single substitutions
# Together with: (+)-ABA 2500 µM
# Baseline: wild-type fitted maximum
# Reading: higher = stronger binding
# Starting sequence: PYL1, truncated, DHFR fusion (Arabidopsis thaliana); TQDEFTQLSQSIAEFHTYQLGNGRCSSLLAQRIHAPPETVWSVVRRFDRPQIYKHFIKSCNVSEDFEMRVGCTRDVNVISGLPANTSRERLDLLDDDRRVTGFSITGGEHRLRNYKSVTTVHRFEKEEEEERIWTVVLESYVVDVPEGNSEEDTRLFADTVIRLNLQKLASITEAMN
Substitution,relative binding score [%]
A175D,95.9
E125C,101
G21A,98.3
L28K,98.5
L82F,79.9
T120E,66.9
V118N,94.8
A30L,99.4
V40K,0.529
E130H,107
E147C,91.6
H55K,98.2
N85D,96

# Block 3
# Target: Interferon regulatory factor 5, full length, phosphomimetic (IRF5, Homo sapiens, UniProt Q13568-2, residues 1-514, S451D/S453D/S456D/S462D)
# Method: protein-binding microarray
# Form: double-stranded DNA, one strand shown
# Medium: in vitro
# Tested at: 940 nM top
# Setting: 60-bp whole probe
# Together with: salmon DNA 0.4 mg/ml
# Baseline: random background probes
# Reading: higher = stronger binding
# Shared flanks, not repeated: GCCTAGCAC … GTCTTGATTCGCTTGACGCTGCTG
Sequence,fitted relative affinity [z-score]
GGGAGTGTCAATAATGACCACGTGCTA,0.526
TTAGATTTAAGTTCCGATTAGTGCTAG,1.03
TCATCATTGCCTATTTTTCCGTGCTAG,0.91
GACGGTATCCTACTGATGACGTGCTAG,-0.182
CAGTTTTCCTCTGTCATTTTGTGCTAG,2.44
TTAGGACTGCTACTGATTTAGTGCTAG,-0.391
TTAGGTTTCGGTTCCGGTGAGTGCTAG,15.1
TTAGATAACAGTATCGATTAGTGCTAG,4.09
GACGGTATCGGGACTAGGGACGTGCTA,2.84
TTAGCTATCGGGACTGGGTTAGTGCTA,0.476
GACGGTGTCCTTCTCCTGACGTGCTAG,-0.0111
TTAGAACTGAGTTTCGACTAGTGCTAG,4.42
TGGTTTTACTTTCTATCTCTGTGCTAG,3.67
GAAGGACTGGACTTTCGGGACGTGCTA,0.176
TTAGGACTGCACTATCGGTTAGTGCTA,-0.0612
GAGGATTTCAGACTGGAGACGTGCTAG,-0.619
GACGGTTTCGGGACTGGGGAGGTGCTA,7.44
GACGGTCTCGGACTGGGTACGTGCTAG,0.711

# Block 4
# Target: CCNA1, cyclin fold, Cln2 fusion (human)
# Method: yeast growth competition, sequencing
# Medium: yeast
# Setting: weak parent motif
# Baseline: not given
# Reading: higher = stronger binding
# Starting sequence: CDKN1B docking peptide (human); PSACRNLFGPVDH
Substitution,normalised enrichment score
PSACRNRFGPVDH [L7R],0.201
KSACRNLFGPVDH [P1K],0.48
PWACRNLFGPVDH [S2W],0.118
PSACSNLFGPVDH [R5S],0.0561
PSACRDLFGPVDH [N6D],0.235
PSACRNLFGCVDH [P10C],0.204
PSACRNLLGPVDH [F8L],0.308
PYACRNLFGPVDH [S2Y],-0.00743
PSACRNLFGFVDH [P10F],0.323
PSAQRNLFGPVDH [C4Q],0.156
PSACRWLFGPVDH [N6W],0.326
PSACRNLFGPVDK [H13K],0.299
PMACRNLFGPVDH [S2M],0.109
PSACRMLFGPVDH [N6M],0.25
PSACRNLFGRVDH [P10R],0.409
PSACRNLFGWVDH [P10W],0.405

# Block 5
# Target: RING finger protein unkempt homolog, zinc fingers 1-6, GST-SBP tag (UNK, Homo sapiens, UniProt Q9C0B0, residues 30-357)
# Sequence of UniProt Q9C0B0 (30-357, looked up): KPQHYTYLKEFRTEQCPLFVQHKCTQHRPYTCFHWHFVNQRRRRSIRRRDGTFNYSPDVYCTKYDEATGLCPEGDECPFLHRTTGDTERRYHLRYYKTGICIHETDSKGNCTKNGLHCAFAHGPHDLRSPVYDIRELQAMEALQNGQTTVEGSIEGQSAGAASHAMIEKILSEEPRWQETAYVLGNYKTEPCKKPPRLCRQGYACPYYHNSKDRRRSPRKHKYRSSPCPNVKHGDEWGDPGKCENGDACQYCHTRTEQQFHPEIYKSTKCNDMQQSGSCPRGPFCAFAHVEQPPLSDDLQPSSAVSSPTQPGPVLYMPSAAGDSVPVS
# Method: RNA Bind-n-Seq
# Form: RNA
# Medium: in vitro
# Tested at: not given
# Setting: RNA with constant flanks, human-mouse chimeric sites, ends assumed
# Baseline: input RNA pool
# Reading: higher = stronger binding
# Shared flanks, not repeated: GGGAGUUCUACAGUCCGACGAUC … CAACAGAGGAUUGAGCAUCA
Sequence,bound/input enrichment
AUAGAUGAAAUUGAUGUGGACCAGGAAGGAAUUGCUGAAAUGAUCCUGGAUGAAAAUGCUAUUGCUCAAGUUCCACGCCCUGGCACAUCUUUGAAGCUCCCUGGCACUAACCAAACAGGA,0.338 ratio
CAGGGCACAGCACCUACCCCCUCCUCCUUUCCACACCUGCAAACUCUUUUACUUGGGCUGAAUAUUUAGUGUUAAUUCAUCUCAGCUUUGAGGGCUCCUGUGGCAAAUUCCCGGAUUAAA,0.64 ratio
GUUGCCAGCUUCCGGUUCCGUUGGGCUCGGUUCUCUCAGUGCUACGUUGUCUCUACGUUUUAGGUGUGCCAUCCAACAAACAUGGAUCAGGUAAUGCAGUUUGUGGAGCCCAGCCGGCAG,0.113 ratio
GCUCCUCCCCGCUCUGCAGCCUGGGGACACUGGGCUGGGACCAGAAUCCAGCUUUCUUUUAAUAGUGUCAGUGUAACUUCUUUUUCUGACAUUUCAUUUUUUUUAAAUAGUGUAUUUUUU,22.5 ratio
UGGCGCCUGCGCUCCCCACUCGUGUUUUUAAGUGUAUUUUUAUAAGAUACAUGUAUUUACAAUUGAGCUUUUGUUACAUAAUGCUGAAAUGCUACUGCAAUAUUAUGAAAAAUGUUAAAU,0.176 ratio
GAGCCCAGCCGGCAGUUUGUAAAGGACUCAAUUCGGCUGGUUAAAAGAUGCACCAAACCCGACAGAAAAGAAUUCCAGAAGAUUGCCAUGGCUACAGCAAUAGGAUUUGCUAUCAUGGGA,0.128 ratio
UCAAGGGGGCACUGCAGAGCCAUGCCUUUCCUUGACAUACAGAAAAAGUUCGGCCUUAGCCUGGACCGGCACUUUAUGUUCCUAAGCGCAGAACAGCCCUAUAAGAACGCCGCUCGGUGC,0.0774 ratio

# For quick reference, copied from above (block 2):
Substitution,relative binding score [%]
E125C,101
A175D,95.9
E130H,107
T120E,66.9
